Measurements pooled from the literature.
Numbered parts are unrelated; each lists some results of a single study.

Study 1 — technique: RNA Bind-n-Seq; form: RNA; matrix: in vitro; tested at: 200 nM; notes: whole 134-nt RNA, ends assumed; added: 150 mM LiCl; relative to: input library; direction: higher = stronger binding; measurement: log2 enrichment; all molecules: 7-deaza-guanosine replaces G
Target: Ras GTPase-activating protein-binding protein 1, full length (G3BP1, Homo sapiens, UniProt Q13283)
Chain of UniProt Q13283 (whole entry, looked up): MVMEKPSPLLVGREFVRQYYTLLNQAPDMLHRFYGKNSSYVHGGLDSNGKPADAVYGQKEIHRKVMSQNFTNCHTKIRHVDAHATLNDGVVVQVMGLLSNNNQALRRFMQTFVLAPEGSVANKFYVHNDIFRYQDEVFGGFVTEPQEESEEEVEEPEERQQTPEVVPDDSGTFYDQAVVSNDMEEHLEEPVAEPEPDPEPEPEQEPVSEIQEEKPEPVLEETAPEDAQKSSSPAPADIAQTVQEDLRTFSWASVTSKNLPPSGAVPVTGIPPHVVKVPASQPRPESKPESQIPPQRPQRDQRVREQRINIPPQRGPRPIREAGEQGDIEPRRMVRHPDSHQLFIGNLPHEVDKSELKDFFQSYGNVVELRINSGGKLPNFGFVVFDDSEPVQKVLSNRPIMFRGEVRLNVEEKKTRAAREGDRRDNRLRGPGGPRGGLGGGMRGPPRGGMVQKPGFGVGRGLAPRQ
Shared flanks, not repeated: GGGAGUUCUACAGUCCGACGAUC … UGGAAUUCUCGGGUGUCAAGG
GUCCUGUGCUACACAUCGUAUGUACCGAAUCGGGCCCCCCGGCCCCCCGGCCCCCCGGGAAAGUAUUAUGUUACGCCGUUCGGAUCUGCA: -0.56
UGGCCCUGGUGGCAUGCGGGGAGGAAGAGGUGGCCUCAUGGAUCGUGGUGGUCCCGGUGGAAUGUUCAGAGGUGGCCGUGGUGGAGACUG: 0.163
CUCAAGUCCUGUGCUACACAUCGUAUGUACCGAAUCGGCCGGCCGGGCCGGGGAAAGUAUUAUGUUACGCCGUUCGGAUCUGCACUUCCA: 0.577
UCAAGUCCUGUGCUACACAUCGUAUGUACCGAAUCGGGCCCGGGCCCGGCCCGGGAAAGUAUUAUGUUACGCCGUUCGGAUCUGCACUUC: -1.01
UGGGAGGUGGAUUUUGUUUAUUUUUUUAGCUCAUUUCCAGGGAUGGGAAUUUUUUUUUAAUAUGUGUCAUGAAUAAAGUUGUUUUUGAAA: -0.348
UAACUUUAGAGGAGGAUCUGAUGGAUAUGGCAGUGGACGUGGAUUUCGGGAUGGCUAUAAUGGGUAUGGAGGAGGACCUGGAGGUGGCAA: -0.707
UGUGGAUGCCCUGCUGAAGAAGUCUGAGGCCCAGCAUGAACAGCCGGAAGAUGGAUGCCCCUUUGGUGCCCUGACGCAGCGCCUCCUGCA: -0.92
UUACAUUACCUGGUGAAAUAGACAUUGACAGUAUCUCCUAUGAAGAGCUUUCACCACCUGAUGAAGAGCCUGCCAAGAAUAAAAAGGAAA: -1.88
CAAGUCCUGUGCUACACAUCGUAUGUACCGAAUCGGGGUUGGGUUGGGGUUGGGGAAAGUAUUAUGUUACGCCGUUCGGAUCUGCACUUC: 0.413
GCAGGAAGUAAAAACAAAUGGAAAUGCUUCGGAUAGUGGCAGGGGUGGGGGUUGCUAAGGAAAGGGUAAAAUGGGAGUGGGUAAAGAGUU: 0.346
UGGGAGGUGGAUUUUGUUUAUUUUAUUAGCUCAUUUCCAGGGGUGGGAAUUUUUUUUUAAUAUGUGUCAUGAAUAAAGUUGUUUUUGAAA: -0.768

Study 2 — technique: RNA Bind-n-Seq; form: RNA; matrix: in vitro; tested at: 365 nM; relative to: no-protein control; direction: higher = stronger binding; measurement: RBNS enrichment (R)
Target: RNA binding protein fox-1 homolog 2, RRM domain, GST-SBP tag (RBFOX2, Homo sapiens, UniProt O43251-10, residues 100-194)
Notes: natural RNA segment, single round, ends assumed
Shared flanks, not repeated: GGGAGUUCUACAGUCCGACGAUC … UGGAAUUCUCGGGUGCCAA
Construct (chain): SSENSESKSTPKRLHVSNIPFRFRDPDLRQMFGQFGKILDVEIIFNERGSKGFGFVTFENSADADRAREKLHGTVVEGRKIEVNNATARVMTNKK
AGCAAGGAUCCAGACGAAGUGGAAACAGAGAGCAGGGGCCCUCCCACCACCUCUGACCUCCUUGCCCCAGACCUGCUGGAGCAAGGGGACUGGAGCCUGUCCCAGAACAA: 0.377
ACCUUACAAAAAACAUAAUUAUCUAGGAGUCCCACAUACUGGACCUACCCUAUUAUACCUCCAAGAGAUAAAGGGUAUGUUAGUGAGGACUUUUGCACACAAGUGCAUGC: 0.443
UUUACAGUGACCUCCAGGCAACUGAAGUCAAGAAUCAGGACUCGGGCUUGCUGCAGGAGGCCCACGUCUGGCCUUUUUCUGUGGGACACUUCUGACCUUGACACUCCGGC: 0.305
UAAGACAGCCGCUCCUUGGACACUCGGCUGGAAGUCUUUAGUGUGUUCCUCCAUACUACUGAAGCCCACCCACAUCCAAGAUCCCUUAUGUAAAAACUGUCUGCAAGGAC: 0.276
CUUAGUAAAUUUGCAUUUGAUAUAUCAUUGAUGAGAUUUUGUUGUUAUGUAAUAUUCUUUGGCUACGCAUCUGUCCAGCAUCUUAUUAACCAUAAUACUGUGAUCAUUAU: 1.67
UUGUCAGUGGUUAAAAGUAUUUAACACUCUACUGUUAAUGACAGAUGUUCUGUUUUUAUAACCUACCAAAAGGAAACUAGAGGCUUCUUGGUGAAGAGCAUUUUUGUGAA: 0.403
UUGAAAGAAGUUUCAUUAAAAGCACCAUUGCUUUCUGUACUGCGUCAGUGCCUCAUUGUAUCAUCCUACUUGUGUUUUGCUCAAUAAAUGAAUAAAAGACCAUUUCUCUU: 0.34
AAUUGUAGAAGUUGAAACAUGAUCGCUAUAUUUCAAUGUUUAUUCCCGUUCAACGUACUGCCUCUAAGCUUUCCUUUAAUUUCUUUAUUUUUAUUUUUGUUCGAAGCAUG: 4.4
UAUUGACAAUUGUCAUCAUGAAAUUACCCCUGAAUAAUCAGGUAAAUAAAGGAGUAUAUGAAUAGCAUUUGCCUCUCCUAAUCCUUACUGGCUGAACUUUCUUUGUUCCA: 0.583
AACCGUCUUCACAAUGUAUUUUCAUCACAGUUUAAGGAGCAUCAGCCGCUUCUCAAGUGGGUAGGGAAAGCAGAAAAACGUACGCAAGAGGACAUGGAUCCAAAAUGAUG: 0.443
GUAGUUUUGUUAUGAAAGUUCUCUACCACCUACCUGUGUGAGUGACACCAACAUCCAGAUGUCACAGCUCUCCAGAGCUAGUCAGAAGAGAAAUCAAAUUAGUGUUUAAA: 0.494
CCGUUCCAUGACAUGCAAGGGGAAGCUCACAGAAGAAGCCCACUGUAACUCAGUGUGAAGCAAGUGUUUGUCCCUGCCCGCUAUCAGCCUACAGAGCAACAUUGUCAUUG: 0.181

Study 3 — technique: protein binding microarray; form: double-stranded DNA, one strand shown; matrix: in vitro; tested at: not given; relative to: not given; direction: higher = stronger binding; measurement: E-score
Target: Histone acetyltransferase KAT6A, winged helix 1, GST fusion (KAT6A, Homo sapiens, UniProt Q92794, residues 1-85)
Notes: 8-mer, flanks averaged, mean of 2 arrays, mostly near background
Construct (chain): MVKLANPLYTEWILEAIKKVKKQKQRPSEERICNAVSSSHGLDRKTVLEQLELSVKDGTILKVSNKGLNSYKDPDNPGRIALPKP
ACGCGACG: 0.371
CCTGATCC: -0.179
CTATACCC: 0.0773
TGGACGAA: -0.141
ATATCTAG: -0.184
GTACACTA: 0.0342
GAGTCCGA: -0.0105
ACTTATAC: -0.0212
GCGCGGTA: 0.433
CACAGTTA: -0.0324
ATATAAAC: -0.0298
AAGAAGAC: -0.22
AACGACAG: -0.0554
AGGGCCAC: -0.128
AGACACAG: -0.208
AAGGGAAC: -0.174
ACTTAACT: -0.131
ACAATTTG: -0.233
TGCGAACA: -0.0101
ATAATATA: -0.107
ATCATGAA: -0.163
CTCCTATC: -0.0926
TCCGTGCA: 0.152
CTGGATCC: 0.00703
CATTAAAA: -0.0506

Study 4 — technique: RNA Bind-n-Seq; form: RNA; matrix: in vitro; tested at: not given; relative to: input RNA pool; direction: higher = stronger binding; measurement: bound/input enrichment
Target: RING finger protein unkempt homolog, zinc fingers 1-6, GST-SBP tag (UNK, Homo sapiens, UniProt Q9C0B0, residues 30-357)
Chain of UniProt Q9C0B0 (30-357, looked up): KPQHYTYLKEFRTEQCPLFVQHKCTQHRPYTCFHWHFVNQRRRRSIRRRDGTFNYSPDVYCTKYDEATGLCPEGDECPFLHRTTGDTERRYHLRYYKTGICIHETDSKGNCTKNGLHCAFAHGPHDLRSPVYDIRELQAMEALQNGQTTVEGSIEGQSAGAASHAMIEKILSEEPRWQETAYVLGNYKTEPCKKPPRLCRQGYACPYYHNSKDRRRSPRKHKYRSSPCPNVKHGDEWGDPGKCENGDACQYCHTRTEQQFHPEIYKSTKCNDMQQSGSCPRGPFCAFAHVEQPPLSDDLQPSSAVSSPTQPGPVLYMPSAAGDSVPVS
Notes: RNA with constant flanks, human and mouse sites, ends assumed
Shared flanks, not repeated: GGGAGUUCUACAGUCCGACGAUC … CAACAGAGGAUUGAGCAUCA
GAGGAAUGUAAUUCCCUGAGUGAUGUGUUAGAUGCAUUUUCAAAAGCGCCCACAUUUCCUAGUAGCAACUAUUUCACAGCAAUGUGGACAAUUGCCAAAAGACUGUCUGAUGACCAGAAG: 0.276 ratio
CAAACCCCAAGUGGUGAGACAGCUUUCAAAAACAUGACGAUUCCUUAUGGGUGGGCCAAACGGCCAAUGCUUCAGCGGAUAGGUGGCUUGCAUCCUGACAUUCCAGUUUCAGUGAUCUUU: 0.171 ratio
GCUGAUCGGUCUUGAUGCAGAACUUUAUUAUGUGAGAAAUGACCUUAUUAGUCACUACGCUCUAUCCUUUAGUCUGUUAGUACCCAGUGAGACAAAUUUCCUGCACUUCACCUGGCAUGC: 0.351 ratio
ACACCCAGUCGCCGAGUCCUGCCCUGUUCUGGCCGCCGGCCCCAACUGGACCUCGACAUCCUUAGCAGCCUCAUCAACUUGUGUGAUAGUCCUGUGUCCCCAUCUGAGGCCAGCCGAACA: 0.231 ratio
CAGAAGCCUGUUGUGCACCCCUCGGCACCUGCCCCCCUCCCUAAGGACUACGCUUUCACCUUCUUCGAUCCCAAUGACCCGGCGUGCCAGGAGAUCCUGUUUGACCCUCAGACCACCAUC: 0.386 ratio
UGCUCUGGAAGCUGCUAUUGCCCGGUAAGAAACCAGUAUCUGGAAAAGGAGCAGCGUCGUCAGUACCUCCUACGUUUGAAAAACAGCCAGCUGGAGAAGACCUACGGGGAGAUGGCCAAG: 0.147 ratio
AGAAAACAGAUAAAUAAUAUAUUUUAUAGGUUUAUUUAUGAAACAGAGCAUCAUAAUGGCAUAGCAGAGUUACUGGAAAUAUUGGGAAGUAUAAUUAAUGGAUUUGCCUUACCACUAAAA: 1.15 ratio
UUGAAGAAAUCAGCAUUUCUAACUGAAGUGAGCCAAAAGGAAAAUUAUGCUGGGGCAAAGUUUAGUGAUCCACCUUCUCCUAGUGUUCUUCCAAAGCCUCCUAGUCACUGGAUGGGAAGC: 0.29 ratio
AUAUCUUUUGUUUUGGCUUGGUUUGAAGAAGGUGAAGAAACAAUUACAGCCUUUGUAGAACCUUUUGUAAUUUUACUCAUAUUAGUAGCCAAUGCAAUUGUGGGUGUAUGGCAGGAAAGA: 0.644 ratio
AUGGAACAUUUUGAUGCAUCACUUAGUACCUAUUUCAAGGCAUUGCUAGGCCCUCGAGAUACUAGAGUAAAAGGAUGGUUUCUUCUGGACAAUUAUAUACCCACAUUUAUCUGCUCUGUC: 1.99 ratio
CCUCCCCGGGCCACCCAGCCCGCCCAACUCCCAGCGGAGAGCAAGGUUUUCUUCUGUUUUCAUAGCCAGCCAGAACAAUGUUCUACGCACAUUUUGUUCUCAGUAAAAGAGGGCCUCUGG: 0.401 ratio
